Experimental data collected from several papers.
A part holds a random share of what one study measured.

Sample 1
Target: RING finger protein unkempt homolog, zinc fingers 1-6, GST-SBP tag (UNK, Homo sapiens, UniProt Q9C0B0, residues 30-357)
Chain of UniProt Q9C0B0 (30-357, looked up): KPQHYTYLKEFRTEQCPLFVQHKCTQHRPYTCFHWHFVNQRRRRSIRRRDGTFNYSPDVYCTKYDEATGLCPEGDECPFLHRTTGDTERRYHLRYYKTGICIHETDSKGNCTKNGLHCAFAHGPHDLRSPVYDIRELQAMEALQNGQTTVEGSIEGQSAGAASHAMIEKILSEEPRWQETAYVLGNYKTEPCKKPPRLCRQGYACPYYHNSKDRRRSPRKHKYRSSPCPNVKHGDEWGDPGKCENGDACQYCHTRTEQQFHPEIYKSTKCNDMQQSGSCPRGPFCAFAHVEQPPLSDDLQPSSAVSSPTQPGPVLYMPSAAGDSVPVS
Technique: RNA Bind-n-Seq
Molecule type: RNA
Sample: in vitro
Concentration: not given
Setting: RNA with constant flanks, ends assumed
Relative to: input RNA pool
Reading: higher = stronger binding
Quantity: bound/input enrichment
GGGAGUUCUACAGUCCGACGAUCAUCACUAUUGGAUCCAUCUCUUUCCUUCUGGGAGUUGUACUGCUAGUAAUUAAUCAUAAAUACCGAAACAGUAGUAACACUGCUGACAUCACCAUUUAAUUUUAUAUUCUGAAACCAAAUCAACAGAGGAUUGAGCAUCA: 0.849 ratio
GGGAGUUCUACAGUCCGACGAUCGAAGACUUUGGUCCAGAAAAGAAAACCAGUGAUGUUGAAACCAUGAGUUCUCAAUCAGCUCCCGCUUUGGAUGAAAGGAAAUUGGGAGGAGAUGUAUCUCCAACACAAAUAGACGUCAGUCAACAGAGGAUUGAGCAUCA: 0.187 ratio
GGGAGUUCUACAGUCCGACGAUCGAUAAGUUUGAAAAACUUGUGCAGACUGUGAGAGAUUAUCAUGCAACUUGGAAAACUGUCCGUAAUAAAUUAAAAAAUCAUCCUGAUUAUGAAGAAUACAUCAACUUAGAGGGAACAAGACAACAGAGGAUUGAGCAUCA: 1.1 ratio
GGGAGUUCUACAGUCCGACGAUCGUUGGCUUGUCAGAUGAACUGGCUAAACUGGAUGCAUUUGUAGAAGGAGUGGUUAAGAAAGCCGCUCAAUACAUGGCUGAUGUAUUGGAAGAUAGCAAAGACAAAGUUCAAGAGAAUCUGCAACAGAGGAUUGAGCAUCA: 0.269 ratio
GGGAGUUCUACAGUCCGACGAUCCAUGUCAUGCAUUUUUCUAAAUGGGCAGUUUCCAGUGGCAGCAGUACAGCAUUACUUUACCGCAAACGACUGAUUACAUACCGGUUACGGCACCUCCUUCGUGCAAGGUGUGAUGCAUCCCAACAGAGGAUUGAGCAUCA: 0.132 ratio
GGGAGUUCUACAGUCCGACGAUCCCCUUGCCUCACCUGUAUUGCUGUGGAUGUGUUUUGUGGGUUUUUCAUUCGAUUUUACAAAACCGGGAAAGGCACUUCCAGUUGUAUUUAGUAGGCAGUUGUUGUGAAUCAUUUUUUUCUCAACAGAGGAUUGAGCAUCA: 0.165 ratio
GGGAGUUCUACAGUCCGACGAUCGAUUAUUUAUUCAAGUUACUUCUGAUUGGCGACUCAGGGGUUGGAAAGUCUUGCCUUCUUCUCCGGUUUGCAUGGGACACAGCAGGCCAGGAAAGAUUUCGAACAAUCACCUCCAGUUAUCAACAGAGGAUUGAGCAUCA: 0.406 ratio
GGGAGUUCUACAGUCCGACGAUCAGAACUGACUCUCUUCCGUGGAAGAGAUGAACUGAGGAGAACCACCUCUUUUUUACCGAUGACUUUAUUUCUAAAUUAUGACCAAAAGAUAUUUUGCUAUUUCUUUCUUUAUAUAUGGACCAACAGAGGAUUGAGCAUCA: 0.584 ratio
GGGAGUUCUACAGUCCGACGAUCGCACGUCAGAAGAUGACCCUUGAGUCAUUCUCUAAGGUGCCGCCUUUGAUUGCAAGCUUUGUCCGGUCGAAGAGAAAGGAAGACUCUCCGAACCUAAGGGAAGCGUUGGAGAACGAAUUCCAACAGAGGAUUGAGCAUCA: 0.103 ratio
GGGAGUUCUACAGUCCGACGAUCGCCACAUCCGGUGAUAUUUGGCCUGGCCUUUCAGCUUAUGAUAAUAGUCCUAGAUCACCCCACCGUCCUUCACCUAUUGCUACACCACCUAGUCAGAGUUCAUCUUGCUCUGAUGCUCCCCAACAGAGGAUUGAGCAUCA: 1.37 ratio
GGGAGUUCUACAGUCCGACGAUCGCCUGGGAGAUUAACAGGAAACUUCCAAGAUGGAAACUUUGUCUUUCCCCAGAUAUAAUGCCGCUGAGAUUGUGAUUCAUAUUCGCAAUAAGAUCUUAACAGGAGCUGAUGGUAAAAACCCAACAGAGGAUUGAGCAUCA: 0.223 ratio

Sample 2
Target: RNA binding protein fox-1 homolog 2, RRM domain, GST-SBP tag (RBFOX2, Homo sapiens, UniProt O43251-10, residues 100-194)
Technique: RNA Bind-n-Seq
Molecule type: RNA
Sample: in vitro
Concentration: 365 nM
Setting: natural RNA segment, single round, ends assumed
Relative to: no-protein control
Reading: higher = stronger binding
Quantity: RBNS enrichment (R)
Residues (chain): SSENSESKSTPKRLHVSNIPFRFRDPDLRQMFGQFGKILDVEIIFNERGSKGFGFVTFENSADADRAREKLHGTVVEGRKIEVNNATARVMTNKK
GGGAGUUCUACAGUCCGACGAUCAUUUUGCAAUAAUCUCUUUUCCCUUGUCAUGCAAGCCAAAAAUAUACCAGUAAAACAGAUUCUGACGUGUUUGUAGUUAUCAAAUGAAUGGCUCGAAACACUUCUCAAAAUGGAAUUCUCGGGUGCCAA: 0.501
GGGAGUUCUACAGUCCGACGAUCGUUUUGUUAAUUACACCAUAAUGCUAAUUUAAAGAGACUCCAAAUCUCAAUGAAGCCAGCUCACAGUGCUGUGUGCCCCGGUCACCUAGCAAGCUGCCGAACCAAAAGAAUGGAAUUCUCGGGUGCCAA: 0.248
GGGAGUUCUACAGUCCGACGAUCUUUGAGAUUCUGUAGGAGGGAGGGAAGGACAGCACCUGUGGCCACCUUCCCUCUUCCGGAUCUGUUUUGGUCUGGACUAUGGGCUCAUCAGGCCCAGGAUCCCGGACCAAUGGAAUUCUCGGGUGCCAA: 0.247
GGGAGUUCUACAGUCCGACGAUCCCAGCCCAGCCUGAUGGUGUAAAUGUACUGUUUCAGAAAACACAUGAGGCUCACCGAAGGCUGAAGAUGUGUGAGCCGGCAAGCCAGGCCUGGUGCCACAGCUUGAUGAGUGGAAUUCUCGGGUGCCAA: 0.649
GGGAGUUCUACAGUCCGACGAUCCCCACCAUGGUCCCCUCAGUUGCACCUAGUGUCUAGCAAUGUGUCUUGCAAGAAAUUCCUAAUUCUUCUGCUGACUUGGAGCUCGCUGCCACAGACAGCACAGCCCUUGCUGGAAUUCUCGGGUGCCAA: 0.532
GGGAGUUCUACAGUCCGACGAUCUUUAAAGAUUUAUAUAAUGCAUCAAAAGCCUUAGAAUAAGAAAAGCUUUUUUUAAAUUGCUUUAUCUGUAUAUCUGAACUCUUGAAACUUAUAGCUAAAACACUAGGAUUUGGAAUUCUCGGGUGCCAA: 0.366
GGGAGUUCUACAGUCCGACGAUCUGUUGUCAGCAUGAUUCAUGUAUUUAUAUAGAUUUGAUUAUUUUAAUUUUCCUGUCUCUUUUUUUUGUAAAUUUUAUGUACAGAUUUGAUUUUUCAUAGUUUUAACUAGAUGGAAUUCUCGGGUGCCAA: 2.85
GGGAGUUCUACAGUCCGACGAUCCACUUCCAAAAAGCUGGCAAAGCGUAACGCAGCAGCUAAGAUGCUCCUUCGAGUGCACACUGUACCUCUGGAUGCCCGGGAUGGCAAUGAGGCAGAGCCUGAUGACGAUCUGGAAUUCUCGGGUGCCAA: 0.512
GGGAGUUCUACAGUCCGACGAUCUUUCCAAAUUUUCUCUGAAGGUGAGUUUUAUAUCAAUAAGUAUGAAUAGAGAUUUACUUUAGGGGUCCCAUGGUUGGUAGCCCACAGCUUCUUCUAAAGGGCAUUGGCCUUGGAAUUCUCGGGUGCCAA: 0.311

Sample 3
Target: Histone acetyltransferase KAT6A, winged helix 1, GST fusion (KAT6A, Homo sapiens, UniProt Q92794, residues 1-85)
Technique: protein binding microarray
Molecule type: double-stranded DNA, one strand shown
Sample: in vitro
Concentration: not given
Setting: 8-mer, flanks averaged, mean of 2 arrays, mostly near background
Relative to: not given
Reading: higher = stronger binding
Quantity: E-score
Target sequence (chain): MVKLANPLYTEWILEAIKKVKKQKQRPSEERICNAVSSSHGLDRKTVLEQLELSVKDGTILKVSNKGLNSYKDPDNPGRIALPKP
CAACACAC: -0.135
GGGACTTA: 0.0586
GCCTATCA: -0.122
CTGCGGCA: 0.308
AGCAAGAG: -0.294
ACTGTTCT: -0.205
GGAGCTTA: -0.0886
CTTTGATC: -0.199
GTAAGCAA: -0.127
CGGTAGAA: 0.0799
CTTTAGCA: -0.172
GACCGGAC: 0.0778
CCGCCCAC: 0.193
ACCCCGAT: 0.0675
CACTGACC: -0.137
CGTTGCTA: -0.114
CCCGGAAA: 0.199
CGTGGTTC: 0.132
GGATTGAC: -0.0142
CTGGCGGA: -0.0235

Sample 4
Target: Transcriptional repressor CTCF (CTCF, Homo sapiens, UniProt P49711, residues 1-727, full length assumed)
Chain of UniProt P49711 (whole entry, looked up): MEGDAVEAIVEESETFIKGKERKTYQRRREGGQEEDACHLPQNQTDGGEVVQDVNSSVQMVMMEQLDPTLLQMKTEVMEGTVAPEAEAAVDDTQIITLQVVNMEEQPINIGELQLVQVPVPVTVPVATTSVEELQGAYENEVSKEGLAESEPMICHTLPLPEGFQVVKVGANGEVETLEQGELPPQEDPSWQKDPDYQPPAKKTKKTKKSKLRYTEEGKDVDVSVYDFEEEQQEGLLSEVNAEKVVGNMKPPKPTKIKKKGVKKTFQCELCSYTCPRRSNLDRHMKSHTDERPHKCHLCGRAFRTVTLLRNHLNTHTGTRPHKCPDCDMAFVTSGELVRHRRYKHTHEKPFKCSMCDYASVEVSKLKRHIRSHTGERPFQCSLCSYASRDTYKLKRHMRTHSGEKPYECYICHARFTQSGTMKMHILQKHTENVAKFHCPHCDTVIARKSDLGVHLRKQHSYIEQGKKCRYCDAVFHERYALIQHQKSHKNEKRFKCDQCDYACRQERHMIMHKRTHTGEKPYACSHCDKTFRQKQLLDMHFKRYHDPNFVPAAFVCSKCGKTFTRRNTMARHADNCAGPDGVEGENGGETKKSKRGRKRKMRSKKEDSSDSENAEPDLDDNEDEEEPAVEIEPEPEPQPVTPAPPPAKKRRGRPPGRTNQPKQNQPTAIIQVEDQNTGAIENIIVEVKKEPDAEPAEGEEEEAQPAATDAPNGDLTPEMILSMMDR
Technique: protein-binding microarray
Molecule type: double-stranded DNA, one strand shown
Sample: in vitro
Concentration: not given
Setting: k-mer, scored over probes, only values ≥0.25
Reading: higher = stronger binding
Quantity: E-score
ATTTTGTA: 0.353
CGCCACCA: 0.317
AAATCTAC: 0.26
CGCATATA: 0.268
GATATTAA: 0.262
AAAATATT: 0.313
AATAATTA: 0.331
TTGTACAA: 0.265
CATATATA: 0.316
ATATAACG: 0.339
TGCGCGCA: 0.385
ATATATAG: 0.335
AAATGCGC: 0.406
GCGGCGCC: 0.305
ATGAAATA: 0.284
AAGCTGAT: 0.335
ATTAACAC: 0.353
ATACGCGC: 0.371
ACCTAGCG: 0.268
ATAAACGA: 0.307
AATAACAA: 0.324
AAAAAACG: 0.306
TATCTACA: 0.27
ACCGCGCA: 0.282
GAGCGCCA: 0.28

Some of these lines once more (sample 4):
ATTAACAC: 0.353
ATACGCGC: 0.371
ACCTAGCG: 0.268
ATAAACGA: 0.307
AATAACAA: 0.324
